Assay results of several laboratories.
Parts stem from different laboratories: compare values within a part only. Positions count from the first letter of the parent shown.

Block 1
Target: Ras GTPase-activating protein-binding protein 1, full length (G3BP1, Homo sapiens, UniProt Q13283)
Chain of UniProt Q13283 (whole entry, looked up): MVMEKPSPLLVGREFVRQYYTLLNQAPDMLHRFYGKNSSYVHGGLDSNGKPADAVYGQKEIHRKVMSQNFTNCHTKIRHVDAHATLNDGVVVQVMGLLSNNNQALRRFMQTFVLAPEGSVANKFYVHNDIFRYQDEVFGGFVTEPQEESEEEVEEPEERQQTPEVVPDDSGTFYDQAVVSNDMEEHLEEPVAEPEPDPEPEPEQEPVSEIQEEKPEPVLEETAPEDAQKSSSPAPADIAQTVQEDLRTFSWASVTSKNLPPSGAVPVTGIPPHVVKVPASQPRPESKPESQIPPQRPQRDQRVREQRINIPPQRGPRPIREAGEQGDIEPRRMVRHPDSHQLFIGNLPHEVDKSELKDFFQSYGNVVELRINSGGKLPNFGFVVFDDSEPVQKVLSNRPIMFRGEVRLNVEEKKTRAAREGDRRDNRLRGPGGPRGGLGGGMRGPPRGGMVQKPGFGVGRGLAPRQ
Technique: RNA Bind-n-Seq
Molecule type: RNA
Medium: in vitro
Tested at: 200 nM
Setting: whole 134-nt RNA, ends assumed
Together with: 150 mM KCl
Reference: input library
Direction: higher = stronger binding
Measurement: log2 enrichment
All sequences stand within: GGGAGUUCUACAGUCCGACGAUC … UGGAAUUCUCGGGUGUCAAGG
CCUGUGCUACACAUCGUAUGUACCGAAUCGGAAAAAAAGGAAAAAAAGGGAAAAAAAGGGGAAAGUAUUAUGUUACGCCGUUCGGAUCUG: -0.938
AGUCCUGUGCUACACAUCGUAUGUACCGAAUCGGGUUUUUGGUUUUUGGUUUUUGGGGAAAGUAUUAUGUUACGCCGUUCGGAUCUGCAC: -1.16
UGGCCCUGGUGGCAUGCGGGGAGGAAGAGGUGGCCUCAUGGAUCGUGGUGGUCCCGGUGGAAGGUUCAGAGGUGGCCGUGGUGGAGACAG: 0.348
GUCCUGUGCUACACAUCGUAUGUACCGAAUCGGGCCCCCGGGCCCCCGGCCCCCGGGGAAAGUAUUAUGUUACGCCGUUCGGAUCUGCAC: -0.564
CUCAAGUCCUGUGCUACACAUCGUAUGUACCGAAUCGGGUUGGUUGGGUUGGGAAAGUAUUAUGUUACGCCGUUCGGAUCUGCACUUCCA: 0.92
UUCUCUAAGAGGAACUCCGGCGCGUCAGAGUAACAGAAGCGAGAGCACAGACAGUCUUGGGGGCUUGUCUCCCUCUGAAGUCACAGCCAU: -0.0282
UGGGAGGUGGAUUUUGUUUAUUUUUUUAGCUCAUUUCCAGGGGUGGGAAUUUUUUUUUAAUAUGUGUCAUGAAUACAGUUGUUUUUGAAA: 0.0472
GUCCUGUGCUACACAUCGUAUGUACCGAAUCGGGUUUUUGGGUUUUUUUGGGUUUGGGAAAGUAUUAUGUUACGCCGUUCGGAUCUGCAC: -0.402
CCUGUGCUACACAUCGUAUGUACCGAAUCGGGGUUUUUGGGGUUUUUUUGGGGUUUGGGGAAAGUAUUAUGUUACGCCGUUCGGAUCUGC: 0.168
AGUCCUGUGCUACACAUCGUAUGUACCGAAUCGGGGCCCGGGGCCCGGGGCCCGGGGAAAGUAUUAUGUUACGCCGUUCGGAUCUGCACU: -1.25
UGGCCCUGGUGGCAUGCGGGGAGGAAGAGGUGGCCUCAUGGAUCGUGGUGGUCCCGGUGGAAUGUUCAGAGGUGGCCGUGAUGGAGACAG: 0.217
GUCCUGUGCUACACAUCGUAUGUACCGAAUCGGGGUUUUUGGGGAAAGGGGUUUGGGGAAAGUAUUAUGUUACGCCGUUCGGAUCUGCAC: 0.647
AACUAAUACUCUUAAAUGGUCUUUCAGUAUAGUGGUUCUUACGUAGUUUAACAUAGCUAUAAAUUGAGUUUAACAAUUUAUAAACUCAAG: -1.56
AAGUCCUGUGCUACACAUCGUAUGUACCGAAUCGGAAAAGGGGAAAAGGAAAAGGGAAAGUAUUAUGUUACGCCGUUCGGAUCUGCACUU: -0.938

Block 2
Target: CCNB1, cyclin fold, Cln2 fusion (human)
Technique: yeast growth competition, sequencing
Medium: yeast
Setting: weak parent motif
Reference: not given
Direction: higher = stronger binding
Measurement: normalised enrichment score
Starting sequence: ORC1 docking peptide (human); PRARKRLELGNLG
PRARKRLELGNDG [L12D]: -0.0745
PRQRKRLELGNLG [A3Q]: 1.21
PRARKPLELGNLG [R6P]: 0.342
PRARKRLELDNLG [G10D]: 1.31
PRARKRLDLGNLG [E8D]: 1.69
PRARKRLELGNYG [L12Y]: -0.191
PRARGRLELGNLG [K5G]: 0.26
PQARKRLELGNLG [R2Q]: 0.211
PRARHRLELGNLG [K5H]: 0.111
PRARKRCELGNLG [L7C]: 0.517
PRARKFLELGNLG [R6F]: 0.919
PRARKRLELGNEG [L12E]: 1.02
PRARKRLEIGNLG [L9I]: 1.09
PRARKRLPLGNLG [E8P]: 0.885
PRARKRLELWNLG [G10W]: 1.38
PRWRKRLELGNLG [A3W]: 0.186
PRARKRVELGNLG [L7V]: -0.0994

Block 3
Target: Histone acetyltransferase KAT6A, winged helix 1, GST fusion (KAT6A, Homo sapiens, UniProt Q92794, residues 1-85)
Technique: protein binding microarray
Molecule type: double-stranded DNA, one strand shown
Medium: in vitro
Tested at: not given
Setting: 8-mer, flanks averaged, mean of 2 arrays, mostly near background
Reference: not given
Direction: higher = stronger binding
Measurement: E-score
Residues (chain): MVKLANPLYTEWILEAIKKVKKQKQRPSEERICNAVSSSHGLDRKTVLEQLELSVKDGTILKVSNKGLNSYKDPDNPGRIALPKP
CACTCGTC: 0.0427
AGCTACAT: -0.144
CTTTGTGC: -0.0661
CGTAGTAG: 0.0894
ATAAACAT: -0.0933
CATACGCA: 0.133
GCTAATGA: -0.0521
AGGCGTTA: 0.0704
ACTGCCCG: 0.144
ATGAATAG: -0.141
CTAACTTC: -0.118
TTAGACAA: -0.00108
CGATTTAC: 0.0466
ATCTGAAT: -0.279
CAACGGGC: 0.2
CTCGCCTC: -0.14
ATGGGAGC: -0.0309
AATTATGG: -0.0209
CAGGAAGG: -0.127
ACGTTTCC: 0.0155
CGGTATGC: 0.246
CTTTACGC: 0.213
GCTACCCC: -0.0537

Block 4
Target: ABI1, truncated, D143A, DHFR fusion (Arabidopsis thaliana)
Technique: DHFR PCA, deep sequencing
Medium: yeast
Setting: methotrexate growth selection, single substitutions
Together with: (+)-ABA 0.11 µM
Reference: wild-type fitted maximum
Direction: higher = stronger binding
Measurement: relative binding score
Starting sequence: PYL1, truncated, DHFR fusion (Arabidopsis thaliana); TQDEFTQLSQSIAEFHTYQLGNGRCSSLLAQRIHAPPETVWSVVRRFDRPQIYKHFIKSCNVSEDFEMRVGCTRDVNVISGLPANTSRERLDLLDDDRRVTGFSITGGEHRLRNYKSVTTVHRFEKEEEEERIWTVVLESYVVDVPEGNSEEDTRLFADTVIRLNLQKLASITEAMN; partner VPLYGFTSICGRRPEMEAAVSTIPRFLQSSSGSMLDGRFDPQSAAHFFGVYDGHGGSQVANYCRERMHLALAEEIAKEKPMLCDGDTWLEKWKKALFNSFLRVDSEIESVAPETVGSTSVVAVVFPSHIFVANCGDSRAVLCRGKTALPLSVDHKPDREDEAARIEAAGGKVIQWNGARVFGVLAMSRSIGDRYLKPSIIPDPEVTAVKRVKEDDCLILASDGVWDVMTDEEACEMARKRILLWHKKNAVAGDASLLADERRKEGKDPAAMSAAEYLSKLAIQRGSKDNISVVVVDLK
L156I: 21.4%
N85P: 0.405%
V100I: 18.4%
L20K: 47.7%
D3R: 19.1%
T39S: 7.81%
N77M: 43.1%
D75W: 32.1%
T119W: -4.84%
I105A: -10.1%
L166C: 0.0558%
T135A: 10.4%
